Published values gathered from unrelated publications.
Compare with care: the assays were run in different laboratories. Numbers after ± are the reported error.
B1: UGT1A9 (Homo sapiens, UniProt O60656); chain GKLLVVPMDGSHWFTMRSVVEKLILRGHEVVVVMPEVSWQLGRSLNCTVKTYSTSYTLEDLDREFKAFAHAQWKAQVRSIYSLLMGSYNDIFDLFFSNCRSLFKDKKLVEYLKESSFDAVFLDPFDNCGLIVAKYFSLPSVVFARGILCHYLEEGAQCPAPLSYVPRILLGFSDAMTFKERVRNHIMHLEEHLLCHRFFKNALEIASEILQTPVTEYDLYSHTSIWLLRTDFVLDYPKPVMPNMIFIGGINCHQGKPLPMEFEAYINASGEHGIVVFSLGSMVSEIPEKKAMAIADALGKIPQTVLWRYTGTRPSNLANNTILVKWLPQNDLLGHPMTRAFITHAGSHGVYESICNGVPMVMMPLFGDQMDNAKRMETKGAGVTLNVLEMTSEDLENALKAVINDKSYKENIMRLSSLHKDRPVEPLDLAVFWVEFVMRHKGAPHLRPAAHDLTWYQYHSLDVIGFLLAVVLTVAFITFKCCAYGYRKCLGKKGRVKKAHKSKTH

CCOC(=O)c1sc(N=C2c3ccccc3-c3nc4cc(F)ccc4nc32)nc1C
blood glucose (mouse, STZ-induced diabetes; oral, 25 mg/kg, day 3): 332 ± 18.4 mg/dL

ILPWKWPWWPWRR
leakage (carboxyfluorescein release; peptide, EYPG vesicles; 10 µg/mL, 250 s, pH 7.4, 25 °C; baseline: Triton X-100): 18%

CCCCCCSc1nnc(COc2ccc3c(c2)NC(=O)CC3)o1
immobility duration decrease (forced swimming test; mice; 40 mg/kg, 0.5 h; baseline: control): 9.67%

CCOc1ccc(Cc2cc([C@@H]3O[C@H](SC)[C@@H](O)[C@H](O)[C@H]3O)ccc2Cl)cc1
urinary glucose excretion (healthy Chinese subjects; oral, 400 mg once daily, 24 h, day 1): 45 g

LRKLRKRLLRDWLKAFYDKVAEKLKEAF (N-acetyl, C-amide)
plasma inflammatory index (monocyte chemotactic activity; peptide, human aortic endothelial cells, female apoE-null mice; retro-orbital, 100 µg 3 times weekly for 15 days; baseline: human LDL): decreased

gamma-MSH
heart rate response onset time (Sprague Dawley rat, urethane-anaesthetised; intravenous, 15 nmol): 22 ± 3.26 s

CS/C(S)=N/CCCC[S+](C)[O-] (racemic)
mRNA level (refers to: Alad; rat, mammary gland; oral gavage, 200 mg/kg, 4 days daily; baseline: vehicle): 9.85 fold

Polymyxin B
TNF-α release (human whole blood; 125 ng/mL, 4 h, 37 °C, together with: E. coli LPS 0.5 ng/mL; baseline: LPS without compound): 5.2 ± 2.3%

CC[C@@H]1CN(C(=O)NCC(F)(F)F)C[C@@H]1c1cnc2cnc3[nH]ccc3n12
EC50 (IGA response; human, atopic dermatitis, plasma average concentration; week 16): 0.0128 µg/mL

C[C@]12C=CC(=O)C=C1CC[C@H]1[C@@H]3C[C@@H](O)[C@](O)(C(=O)CO)[C@@]3(C)C[C@H](O)[C@@]12F
bone resorption reduction (histology; rat, MIA-induced osteoarthritis, knee MFC and LFC; intra-articular, 0.06 mg on 5, 12, 19 days after MIA, day 26; baseline: vehicle): 49 to 50%

CCOc1ccc(NC(=S)N(CCO)Cc2cc3cc(C)cc(C)c3[nH]c2=O)cc1
reduction of intestinal ulcers (mouse, indomethacin-induced intestinal injury; oral, 10 µg/mouse twice daily, 2 days, together with: indomethacin 10 mg/kg ip): 90%

CCCCCCCCCCCCCCCC(=O)NCCCC[C@H](NC(=O)[C@H](CCC(=O)O)NC(=O)[C@H](CCC(=O)O)NC(=O)[C@H](Cc1ccc(O)cc1)NC(=O)[C@H](CCC(=O)O)NC(=O)CCCCCNC(=S)Nc1ccc2c(c1)C(=O)OC21c2ccc(O)cc2Oc2cc(O)ccc21)C(=O)N[C@@H](Cc1ccc(O)cc1)C(=O)N[C@@H](CCC(=O)O)C(=O)NCC(=O)NCC(=O)NCC(=O)NCC(=O)N[C@@H](CO)C(=O)NCC(=O)NCC(=O)NCC(=O)NCC(=O)N[C@@H](CO)C(=O)N[C@@H](Cc1ccccc1)C(=O)N[C@@H](CC(N)=O)C(=O)N1CCC[C@H]1C(=O)N[C@@H](CCCNC(=N)N)C(=O)N[C@@H](Cc1c[nH]cn1)C(=O)NC(C)(C)C(=O)N[C@@H](CCC(=O)O)C(=O)NCC(=O)N[C@H](C(=O)N[C@@H](Cc1ccccc1)C(=O)N[C@H](C(=O)N[C@@H](CO)C(=O)N[C@@H](CC(=O)O)C(=O)N[C@H](C(=O)N[C@@H](CO)C(=O)N[C@@H](CO)C(=O)N[C@@H](Cc1ccc(O)cc1)C(=O)N[C@@H](CC(C)C)C(=O)N[C@@H](CCC(=O)O)C(=O)NCC(=O)N[C@@H](CCC(N)=O)C(=O)N[C@@H](C)C(=O)N[C@@H](C)C(=O)N[C@@H](CCCCN)C(=O)N[C@@H](CCC(=O)O)C(=O)N[C@@H](Cc1ccccc1)C(=O)N[C@H](C(=O)N[C@@H](C)C(=O)N[C@@H](Cc1c[nH]c2ccccc12)C(=O)N[C@@H](CC(C)C)C(=O)N[C@H](C(=O)N[C@@H](CCCCN)C(=O)NCC(=O)N[C@@H](CCCNC(=N)N)C(=O)NCC(=O)O)C(C)C)[C@@H](C)CC)C(C)C)[C@@H](C)O)[C@@H](C)O
glucose reduction (db/db mouse; subcutaneous, 10 nmol/kg, 0.5 h before glucose, AUC 0-120 min, together with: oral glucose 2.0 g/kg; baseline: saline): 25.9%

Cn1cc(Nc2nccc(-c3ccc4c(c3)CN(C3COC3)CC[C@H]4NC(=O)c3cn(C(C)(C)C)nn3)n2)cn1
EC50 (anti-IgD-induced B-cell activation, inhibitor, refers to: CD69; B cells, healthy human volunteers, whole blood ex vivo; vs plasma concentration): 55 nM

CC(=O)N[C@@H](CCCCN)C(=O)N[C@@H](CC(C)C)C(=O)N[C@@H](CC(=O)O)C(=O)N[C@@H](CC(C)C)C(=O)N[C@@H](CCCCN)C(=O)N[C@@H](CC(C)C)C(=O)N[C@@H](CC(=O)O)C(=O)N[C@@H](CC(C)C)C(=O)N[C@@H](CCCCN)C(=O)N[C@@H](CC(C)C)C(=O)N[C@@H](CC(=O)O)C(=O)N[C@@H](CC(C)C)C(N)=O
modified Mankin score (Sprague Dawley rat, knee OA model, knee cartilage; intra-articular, dose not given, 6 weeks; direction not given): 4 ± 0.8

Oc1cc2c(cc1O)C(c1ccccc1)CNCC2 (stereo not shown)
accuracy (five-choice serial reaction time task; male Lister hooded rat, low performers; intraperitoneal, 3 mg/kg): 69.4 ± 0.91%

Oc1ncnc2[nH]ncc12
maximum change in serum uric acid (male gout patients, serum; 300 mg, steady state, together with: verinurad 10 mg alone or combined; baseline: time-matched baseline): -43%

CC(C)[C@H]1C(=O)N[C@@H](CCCNC(=N)N)C(=O)NCC(=O)N[C@@H](CC(=O)O)C(=O)N[C@H](Cc2ccccc2)C(=O)N1C
progression-free time (human; concentration not given): > 100 weeks

CC(C)C[C@H](NC(=O)[C@H](CO)NC(=O)[C@H](CCCNC(=N)N)NC(=O)[C@H](CC(=O)O)NC(=O)[C@H](CCC(=O)O)NC(=O)[C@H](C)NC(=O)[C@@H]1CCCN1C(=O)[C@H](C)NC(=O)[C@H](CCC(=O)O)NC(=O)[C@@H]1CCCN1C(=O)[C@@H]1CCCN1)C(N)=O
dopamine level (HPLC-EC; F344 rat, normal, striatum, wet tissue, both hemispheres; intranasal, 1000 µg, 5 days/week for 3 weeks): 9910 ± 991 ng/g

CCOc1nc2cccc(C(=O)O)c2n1Cc1ccc(-c2ccccc2-c2nn[nH]n2)cc1
time to heme-positive stool (mouse DSS colitis; transanal, 10 mg/kg/day): 8 days

hen egg-white lysozyme
highest concentration without response (IL-2 secretion; Iso.210 T cell hybridoma, B10.BR mouse; overnight, together with: M12.C3.F6 antigen-presenting cells): > 30 µM

Cc1ccc(CSc2nnc(COc3ccc4c(c3)NC(=O)CC4)o2)cc1
immobility duration decrease (forced swimming test; mice; 40 mg/kg, 0.5 h; baseline: control): 35%

Neuropeptide Y
Col1a1 mRNA level (Nep−/− mouse, bile duct ligation, liver; dose not given; baseline: control injection): decreased

CC1(C)CCC(CN2CCN(c3ccc(C(=O)NS(=O)(=O)c4ccc(NCC5CCOCC5)c([N+](=O)[O-])c4)c(Oc4cnc5[nH]ccc5c4)c3)CC2)=C(c2ccc(Cl)cc2)C1
EC50 (cell kill, PI exclusion flow cytometry; normal CD3+ T lymphocytes, dog, peripheral blood; 24 h): 525 ± 650 nM

O=C(NC[C@H]1CN(c2ccc(N3CCOCC3=O)cc2)C(=O)O1)c1ccc(Cl)s1
prothrombin time AUC(0-48h) increase (human, mild renal impairment, plasma; oral, 10 mg, together with: erythromycin at steady state; baseline: normal renal function, compound alone): ~75%

CC12CCC(CC1=O)C2(C)C (stereo not shown)
proportion of food consumed (two-choice feeding trial; Sylvilagus nuttallii; 1% dry weight in diet, 72 h, together with: monoterpene mixture 1% dry weight): 31 ± 0.08%

CC(=O)Nc1cccc(OCc2nnc(SCc3cccc(Cl)c3)o2)c1
immobility duration decrease (forced swimming test; mice; 40 mg/kg, 0.5 h; baseline: control): 45.9%

CC(C)n1cnc(-c2ccc(F)cc2)c1-c1ncc(C(=O)Nc2ccc(N3CCN(C)CC3)cc2)[nH]1
differentially abundant proteins (Olink proteomics; IPF patients, serum; 30 mg once daily, adjusted p below 0.05, unit not given; baseline: placebo): 1

CCCCSc1nnc(COc2ccc3c(c2)NC(=O)CC3)o1
immobility duration decrease (forced swimming test; mice; 40 mg/kg, 0.5 h; baseline: control): 15.6%

CC(C)OC(=O)C(C)(C)Oc1ccc(C(=O)c2ccc(Cl)cc2)cc1
dose (hepatic PPAR target gene induction; Sprague Dawley rats, diet-induced dyslipidemia, liver; together with: ACC inhibitor): ≥ 5 mg/kg

COc1ccc2c(c1)c(CC(=O)O)c(C)n2C(=O)c1ccc(Cl)cc1
cytokine level (multiplex bead immunoassay, refers to: IL-13; CD-1 mice, serum; ip, 20 mg/kg, three-injection regimen, together with: LPS 3 mg/kg): 104 ± 9.5 pg/mL

Cc1cc(C)c(/C=C2\C(=O)Nc3ccccc32)[nH]1
tumour volume (MRI; human; dose not given, 5.4 months): 75.9 cm³

insulin lispro
maximum glucose infusion rate (euglycemic clamp; obese type 2 diabetic patients; subcutaneous, 50 units, 8 h): 2.5 mg/kg/min

Cc1ccc(-c2nn(-c3ccccc3)cc2C=NNC2=NC(=O)C(=C3c4ccccc4-c4nc5cc(F)ccc5nc43)S2)cc1
blood glucose (mouse, STZ-induced diabetes; oral, 25 mg/kg, day 3): 343 ± 52.8 mg/dL

CCCOc1ccc(S(=O)(=O)NCCC2CCCN2C)cc1-c1nc2c(CCC)nn(C)c2c(=O)[nH]1 (stereo not shown)
maximal VO2 (ramp cycle exercise test; human adolescents after Fontan palliation; oral, 87.5 mg twice daily, day 5): 28.2 ± 6 mL/kg/min

C[C@H]1C[C@H]2CSC(N)=N[C@@]2(c2nc(NC(=O)c3ccc(OC(F)F)cn3)cs2)CO1
change from baseline (refers to: CSF sAPPβ; healthy adults; 275 mg once daily, 14 days, day 15; baseline: placebo-adjusted baseline): -83.4%

B1 (UGT1A9)
Vmax/Km (Cc1c(-c2ccccc2)oc2cc(O)ccc2c1=O; steady-state kinetics; pH 7.4, 37 °C): 2010 µL/min/mg

C=CC(=O)N(C)CCOc1c(N)ncnc1-c1cc(F)cc(NC(=O)c2ccc(C3CC3)cc2F)c1C
platelet aggregation (inhibitor, light transmission aggregometry; human platelet-rich plasma; concentration not given, 30 min, 37 °C, together with: CXCL12 or CRP-XL): inhibited

O=C1NC(=O)C(c2ccccc2)(c2ccccc2)N1
ED50 (maximal electroshock seizure protection; C57BL/6J male mouse; oral, 2 h): ~5 mg/kg

O=C(NCc1ccncc1)C12CC3CC(C1)CC(c1ccc(Cl)cc1)(C3)C2
partial response (RECIST; human, advanced solid tumours; 250 mg once daily): 7%

CC[C@H](C)[C@@H]1NC(=O)[C@H](CCCNC(=N)N)NC(=O)[C@H](CC(=O)O)NC(=O)[C@H]([C@@H](C)CC)NC(=O)[C@H](CCCCN)NC(=O)[C@H](Cc2c[nH]cn2)NC(=O)CNC(=O)[C@H](Cc2ccccc2)NC(=O)[C@@H](NC(=O)[C@H](CO)NC(=O)[C@H](CO)NC(=O)[C@@H](NC(=O)[C@H](Cc2c[nH]cn2)NC(=O)[C@@H](NC(=O)[C@@H](NC(=O)[C@H](CCCCN)NC(=O)[C@H](CO)NC(=O)[C@@H](N)CC(N)=O)C(C)C)[C@@H](C)O)[C@@H](C)CC)CSSC[C@@H](C(=O)N[C@@H](CC(N)=O)C(=O)N[C@@H](C)C(=O)N[C@@H](CC(C)C)C(=O)N[C@@H](CCCCN)C(=O)O)NC(=O)CNC(=O)[C@H](CC(C)C)NC(=O)[C@H](CCCNC(=N)N)NC(=O)[C@H](CO)NC(=O)[C@H](C(C)C)NC(=O)[C@H](CO)NC(=O)CNC1=O
time to maximal vasorelaxation (C57BL/6J mouse, normotensive, anaesthetised; intravenous bolus, 1.67 nmol/g body weight): 3.3 ± 1.2 min
